Values quoted from earlier work that unrelated publications cite.
Each line is one published result; not all experiments were run side by side. Numbers after ± are the reported error.

Molecule | target or system | assay | system | conditions | scale | quantity | value
Cc1c(O)c(C23CC4CC(CC(C4)C2)C3)cc2c1CC[C@@H]1[C@@H]2CC[C@]2(C)C(=O)CC[C@@H]12 | HT-22 | cell protection |  | added: iodoacetic acid 40 µM |  | EC50 | 0.28 µM
Thrombospondin-1 | endothelial cells | endothelial cell proliferation, inhibitor |  |  |  | effective concentration | < 20 nM
Cl.c1csc(CNc2cc[nH]n2)c1 | human peripheral blood lymphocytes |  |  | ≥216 µg/mL, 20 + 0 h, range-finding, without S9 | baseline: vehicle | mitotic index reduction | ≥ 50%
O=C(Nc1ncnc2c1ncn2[C@@H]1O[C@@H]2COP(=O)(O)OC2C1O)c1ccccc1 (stereo in doubt) | PDE10 | cyclic nucleotide hydrolysis, substrate or inhibitor, isothermal titration calorimetry |  |  |  | Km or Ki | 45.6 µM
CCCCCCCCCCCCCC(=S)NCCCCC(NC(=O)OCc1ccccc1)C(=O)Nc1ccccc1 (centres unmarked) | HCT-116 overexpressing SIRT2 | anchorage-independent growth |  |  |  | GI50 | 27 ± 8 µM
Cc1cc(=O)oc2cc(O)ccc12 | human fibroblasts | refers to: chondroitin and dermatan sulfate synthesis |  | up to |  | no effect concentration | > 1 mM
C[C@]12CC[C@@H]3c4ccc(O)cc4CC[C@H]3[C@@H]1CC1(CCCC1)C2=O | HT-22 | cell protection |  | added: iodoacetic acid 20 µM |  | EC50 | 0.006 µM
FGF-2 | Schwann cells |  |  | added: 5 to 10 µM forskolin |  | doubling time | 1 to 2 days
C[C@]12CC[C@@H]3c4ccc(O)cc4CC[C@H]3[C@@H]1CC[C@@H]2OC(=O)c1ccccc1 | HT-22 | cell protection |  | added: iodoacetic acid 20 µM |  | EC50 | 0.591 µM
O=c1c2nc(Br)n([C@@H]3O[C@@H]4COP(=O)(O)O[C@H]4[C@H]3O)c2nc2[nH]c(-c3ccccc3)cn12 | PDE10 | cyclic nucleotide hydrolysis, substrate or inhibitor, isothermal titration calorimetry |  |  |  | Km or Ki | 34.4 µM
VGGVVIA | differentiated PC-12 | Aβ42-induced toxicity, inhibitor, MTT | peptide | 10-fold excess over Aβ42, 15 h, added: Aβ42 5 µM |  | viability | 80 ± 3%
C[C@]12CC[C@@H]3c4ccc(O)cc4CC[C@H]3[C@@H]1CC[C@@H]2O | HT-22 | cell protection |  | added: iodoacetic acid 40 µM |  | EC50 | 4.7 µM
CC(=O)c1cccc(N[C@H]2[C@H](N)[C@@](NC(=O)N(C)C)([C@H](C)O)[C@@](C)(O)[C@@]2(O)COC(=O)c2c(C)cccc2O)c1 | MOLT-4 |  |  |  |  | GI50 | < 0.1 µM
C[N+](C)(C)CC(=O)O | Ehrlich ascites cells | Na+-dependent system A uptake |  |  |  | Km | ~40 mM
CSc1ccc(/C=C2/C(C)=C(CC(=O)O)c3cc(F)ccc32)cc1 | cells overexpressing human APP |  |  | 80 to 100 µM |  | Abeta42 reduction | ≥ 50%
O=c1c(O)c(-c2ccc(O)c(O)c2)oc2cc(O)cc(O)c12 | MCF7 | cell growth |  |  |  | growth-inhibiting concentration | > 2.5 µM
C[C@]12CCC[C@@H]1[C@H]1CCc3cc(O)ccc3[C@@H]1CC2 (single isomer, unassigned) | HT-22 | cell protection |  | added: iodoacetic acid 20 µM |  | EC50 | 0.191 µM
